Results of several laboratories.
Each numbered part is a random draw from the data of one study; scales do not carry over between parts.

Series 1 — read-out: enzyme activity; action: inhibitor; concentration: 20 µM; quantity: inhibition
Target: Replicase polyprotein 1ab, polymerase (rep, Severe acute respiratory syndrome coronavirus 2, UniProt P0DTD1)
Nc1ccc(S(=O)(=O)Nc2nccs2)cc1: 28.2%
CC(C)(CC(=O)N1CCCC1)NCC(=O)N1C[C@@H](F)C[C@H]1C#N: 1.03%
CCN(CC)CC1CCCCN1CC(=O)N1c2ccccc2C(=O)Nc2cccnc21 (centres unmarked): 2.62%
CC(C)(CCCCCCCCCCC(C)(C)CC(=O)O)CC(=O)O: 0.9%
Nc1nc2c(ncn2[C@@H]2O[C@H](CO)[C@@H](O)[C@H]2O)c(=O)[nH]1: -1.97%
FC(F)(F)C(F)(F)C(F)(F)N(C(F)(F)C(F)(F)C(F)(F)F)C(F)(F)C(F)(F)C(F)(F)F: 3.13%
CCOC(=O)c1ccc(N(C)c2csc(-c3ccccc3)n2)cc1: 1.47%
O=C(O)Cc1ccc(CCNS(=O)(=O)c2ccc(Cl)cc2)cc1: 2.75%
Cc1c(CN2CCN(C(=O)[C@H](C)O)CC2)sc2c(N3CCOCC3)nc(-c3cnc(N)nc3)nc12: -2.75%
C[C@H](CCC(=O)O)[C@H]1CC[C@H]2[C@@H]3[C@@H](O)C[C@@H]4C[C@H](O)CC[C@]4(C)[C@H]3CC[C@]12C: 4.64%
Nc1nc2ccc(OC(F)(F)F)cc2s1: 6.18%
C[n+]1c2cc(N)ccc2cc2ccc(N)cc21: -46.2%
CN1C(=O)N[C@H](Cc2c[nH]c3c(Cl)cccc23)C1=O: -2.43%
NC(=O)OCC(COC(N)=O)c1ccccc1: -5.21%
CCCOc1ccc(Br)cc1-c1cc(-c2ccc(Cl)cc2)[nH]c1-c1ccncc1: 6.13%
CC(C)[C@H]1C(=O)N[C@@H](CCCNC(=N)N)C(=O)NCC(=O)N[C@@H](CC(=O)O)C(=O)N[C@H](Cc2ccccc2)C(=O)N1C: -4.61%
CCCCCCCCCCCCCCCC(=O)C(F)(F)F: 2.14%
CC1(C)C[C@@H]1C(=O)N/C(=C\CCCCSC[C@H](N)C(=O)O)C(=O)O: 5.85%
O=C(O)c1ccccc1O: 10.7%
NC(=O)OCC(O)COc1ccc(Cl)cc1 (centres unmarked): 0.32%
CCc1c(C(=O)NCCc2ccc(N3CCCCC3)cc2)[nH]c2ccc(Cl)cc12: -1.48%
CCCCCCCCCCCC(=O)OCC(O)CO (centres unmarked): -11.7%
CCCCC1OC(=O)c2ccccc21 (centres unmarked): -12.6%
Cc1ccc(=O)n(-c2ccc(O)cc2)c1: -7.08%
C[C@]1(c2nc3c(C(N)=O)cccc3[nH]2)CCCN1: 0.33%

Series 2 — cell line: HEK-293T-ACE2; concentration: concentration not given; reference: vehicle; quantity: cell number
OC[C@H]1O[C@@H](c2ccc(Cl)c(Cc3ccc(O[C@H]4CCOC4)cc3)c2)[C@H](O)[C@@H](O)[C@@H]1O: 103%
CC(=O)NO: 105%
OCCN(CCO)c1nc(N2CCCCC2)c2nc(N(CCO)CCO)nc(N3CCCCC3)c2n1: 108%
CCC(=O)O[C@@H](O[P@](=O)(CCCCc1ccccc1)CC(=O)N1C[C@H](C2CCCCC2)C[C@H]1C(=O)[O-])C(C)C.[Na+]: 100%

Series 3 — method: competition protein-binding microarray; molecule type: double-stranded DNA, one strand shown; medium: in vitro; concentration: 2 µM; added: Cbf1 competitor, 0.05 µM; reading: higher = stronger binding; quantity: fluorescence intensity; shared flanks, not repeated: … GTCTTGATTCGCTTGACGCTGCTG
Target: Phosphate system positive regulatory protein PHO4, full length, GST-tagged (PHO4, Saccharomyces cerevisiae, UniProt P07270, residues 1-312)
Notes: whole 60-bp probe, lowest competitor level
Construct (chain): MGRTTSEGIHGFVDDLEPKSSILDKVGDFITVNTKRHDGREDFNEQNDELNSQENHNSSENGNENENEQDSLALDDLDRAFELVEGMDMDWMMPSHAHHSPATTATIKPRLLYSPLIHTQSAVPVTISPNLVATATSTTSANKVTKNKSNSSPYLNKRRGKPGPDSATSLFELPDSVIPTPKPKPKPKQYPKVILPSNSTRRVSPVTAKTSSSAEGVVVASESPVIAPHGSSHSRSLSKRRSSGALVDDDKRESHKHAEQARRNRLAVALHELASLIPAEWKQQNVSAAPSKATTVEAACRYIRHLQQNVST
AACCAGTCCAAAAGGTACGTGCAATAAAAGAAGTTG: 7750 a.u.
CGTCCTAGCGATTGAAGGGTGGGTGCCATGAGGAAG: 6990 a.u.
CCAAAACTGACAACCGGCGTGCGGATATGCGGAAGA: 7860 a.u.
CGGGGTTAAGTTTTTCACGTGCCATGCTTGCAGCAG: 13700 a.u.
ACCCGCCCCTCGGGGCACGCGGTCTCCCGGCTTCTC: 10300 a.u.
CGGGGTTAAGTTTTTCACGTGAATTGCTTGCAGCAG: 8190 a.u.
ACTATTAATATATTTTCATATAATTAGTATAATCTC: 3930 a.u.
CATACCCAACCTTGATGGGTGGGTGAAGATATTTGT: 4090 a.u.

Series 4 — method: RNA Bind-n-Seq; molecule type: RNA; medium: in vitro; concentration: 365 nM; reference: no-protein control; reading: higher = stronger binding; quantity: RBNS enrichment (R)
Target: RNA binding protein fox-1 homolog 2, RRM domain, GST-SBP tag (RBFOX2, Homo sapiens, UniProt O43251-10, residues 100-194)
Notes: natural RNA segment, single round, ends assumed
Shared flanks, not repeated: GGGAGUUCUACAGUCCGACGAUC … UGGAAUUCUCGGGUGCCAA
Target sequence (chain): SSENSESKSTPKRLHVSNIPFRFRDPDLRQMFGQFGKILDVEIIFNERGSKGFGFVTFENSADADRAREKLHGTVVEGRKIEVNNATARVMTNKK
CCCAUCUGGGCUGUCUCUGCAGGGCAGAGCCGUCCAGACCUGGGAUCAGGGAAGCUGCUGGCAUCGUCCCCACCCCCAGCCUGGGGGUCUGGGCUGGGGCAGGGAUUGCU: 0.221
GAAGCUUUGGCAGCCUUCUGGAACGUCCCUCAUCCCCAGAAUCUCCCUUCUUACCCGAGUGCCUCCUGCUUCCUCCGAGGCCCAGGGGGACUCAUAUCCAAUGGCUCCUA: 0.692
UUGCAAGGCUGUACAAUGUGCUGAUGCAAGCCUUUUUCAGUUCAAGAGAAUAAAUGUUUACAAAUGUAGACCCACUUUGUCUUUUUUCUAAUUAGAAACAUCCUUAGGGA: 0.814
UGUUGUCCUGACAGUAAAGCAAAUAGUAAGCCAUGUCUUGAAAGUGAUUUGCUUGUUUCAUACUGACAUCUAAAGACAUCAGCCUUCUCUUUGGCAACCCUGGGGAUACU: 0.46
GCUGGUGUGUAUUUUUGUAAAUGUUAUGCACUCUGAAAGGAAAACACACAAAAGAAGAGAUUUUGUCGUUUUUUGUUUUGCCAAGGCCAGUGUUGCUGCCUAAAAAAAAA: 1.13
UGAUGAAAAUAAAUAGAGUGUAAAUUCUUUUUAAUGCUUUAGUGAUUAAAUGUUUUAGUAUUUUGAACUGAAAUGGACAAAAAAAGAAAAAGGAAAAAAAAAGCAGGUUU: 1.79
UCAAUUAUCAGUGGCUUUAUGAAGUAAAGUUAAAAACAAACAUAGGAAAUGUGAAAAUAUUUGUGUUUGUUUUGUCUGACUAACUUGCUGCUAAAUGCUAUCUUUAGGUG: 0.412
AAAUAUUUGUUUGUAAAUGAAAGUUUAGCUAGUGCUUAAAUAAACAUGUGCUAUGAAUUGUUUCUAUAUACUAGUCUUUUUCUAAUUGUAAGAAAAUUCCAGUAUUGGCA: 1.18

Series 5 — read-out: enzyme activity; action: inhibitor; notes: without DTT; quantity: IC50
Target: Replicase polyprotein 1ab, main protease (rep, Severe acute respiratory syndrome coronavirus 2, UniProt P0DTD1)
CC(Cc1ccc(O)c(O)c1)C(C)Cc1ccc(O)c(O)c1 (centres unmarked): > 20 µM
Sc1nnnn1-c1ccccc1: 2.4 µM
COc1ncc(-c2ccc3nccc(-c4ccnnc4)c3c2)cc1NS(=O)(=O)c1ccc(F)cc1F: > 20 µM

Series 6 — method: protein binding microarray; molecule type: double-stranded DNA, one strand shown; medium: in vitro; concentration: not given; reference: not given; reading: higher = stronger binding; quantity: E-score
Target: Histone acetyltransferase KAT6A, winged helix 2, GST fusion (KAT6A, Homo sapiens, UniProt Q92794, residues 85-181)
Notes: 8-mer, flanks averaged, mean of 2 arrays, mostly near background
Residues (chain): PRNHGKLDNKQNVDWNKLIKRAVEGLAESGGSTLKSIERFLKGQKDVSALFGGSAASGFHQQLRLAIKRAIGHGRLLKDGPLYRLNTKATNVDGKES
ACAGTGCA: -0.0233
AGGTGAAC: 0.0667
GTATTTTA: -0.00186
GGTCATTA: -0.0672
CCGGTTGA: 0.107
AAAGTCGA: -0.063
ACCCGCTC: -0.0801
CGGACTTA: -0.202

Repeated from above (series 3):
CGTCCTAGCGATTGAAGGGTGGGTGCCATGAGGAAG: 6990 a.u.
ACTATTAATATATTTTCATATAATTAGTATAATCTC: 3930 a.u.
ACCCGCCCCTCGGGGCACGCGGTCTCCCGGCTTCTC: 10300 a.u.
CCAAAACTGACAACCGGCGTGCGGATATGCGGAAGA: 7860 a.u.
CATACCCAACCTTGATGGGTGGGTGAAGATATTTGT: 4090 a.u.
CGGGGTTAAGTTTTTCACGTGAATTGCTTGCAGCAG: 8190 a.u.
CGGGGTTAAGTTTTTCACGTGCCATGCTTGCAGCAG: 13700 a.u.
